Assay results from different studies.
Every numbered part comes from another study and shows a few of its results, in no order. Several values in a cell are separate wells, animals, samples, runs or records.
UniProt Q8N5S9, sequence (whole entry, looked up): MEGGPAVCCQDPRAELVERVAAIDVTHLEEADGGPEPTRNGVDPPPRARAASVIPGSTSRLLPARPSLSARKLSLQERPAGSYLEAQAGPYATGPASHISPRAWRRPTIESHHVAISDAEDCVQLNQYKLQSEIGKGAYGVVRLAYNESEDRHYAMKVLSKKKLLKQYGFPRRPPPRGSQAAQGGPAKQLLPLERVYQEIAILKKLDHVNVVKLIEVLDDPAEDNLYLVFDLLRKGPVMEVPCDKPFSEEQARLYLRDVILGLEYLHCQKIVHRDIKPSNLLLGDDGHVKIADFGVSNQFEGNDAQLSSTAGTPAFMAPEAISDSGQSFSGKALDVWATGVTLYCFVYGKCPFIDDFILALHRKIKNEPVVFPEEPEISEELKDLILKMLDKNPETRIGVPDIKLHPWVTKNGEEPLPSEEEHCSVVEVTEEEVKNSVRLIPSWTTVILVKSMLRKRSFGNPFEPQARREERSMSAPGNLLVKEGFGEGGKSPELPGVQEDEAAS
UniProt Q04759, sequence (whole entry, looked up): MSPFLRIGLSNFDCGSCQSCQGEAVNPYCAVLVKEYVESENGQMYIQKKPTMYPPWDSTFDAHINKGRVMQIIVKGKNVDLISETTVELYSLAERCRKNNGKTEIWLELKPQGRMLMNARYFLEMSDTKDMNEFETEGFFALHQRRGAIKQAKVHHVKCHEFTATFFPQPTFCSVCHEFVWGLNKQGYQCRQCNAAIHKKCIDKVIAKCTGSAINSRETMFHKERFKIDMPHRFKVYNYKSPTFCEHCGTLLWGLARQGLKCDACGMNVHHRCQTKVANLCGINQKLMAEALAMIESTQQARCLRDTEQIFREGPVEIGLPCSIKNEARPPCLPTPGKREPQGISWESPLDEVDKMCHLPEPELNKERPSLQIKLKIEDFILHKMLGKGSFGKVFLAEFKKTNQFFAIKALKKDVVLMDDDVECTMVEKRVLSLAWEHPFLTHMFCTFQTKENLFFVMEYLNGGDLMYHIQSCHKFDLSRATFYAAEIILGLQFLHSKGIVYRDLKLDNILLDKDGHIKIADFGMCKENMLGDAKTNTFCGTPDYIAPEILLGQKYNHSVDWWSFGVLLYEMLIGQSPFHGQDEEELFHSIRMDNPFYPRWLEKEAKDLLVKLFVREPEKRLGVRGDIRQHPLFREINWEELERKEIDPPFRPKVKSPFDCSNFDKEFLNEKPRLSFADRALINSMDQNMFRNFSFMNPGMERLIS
UniProt O60674, sequence (whole entry, looked up): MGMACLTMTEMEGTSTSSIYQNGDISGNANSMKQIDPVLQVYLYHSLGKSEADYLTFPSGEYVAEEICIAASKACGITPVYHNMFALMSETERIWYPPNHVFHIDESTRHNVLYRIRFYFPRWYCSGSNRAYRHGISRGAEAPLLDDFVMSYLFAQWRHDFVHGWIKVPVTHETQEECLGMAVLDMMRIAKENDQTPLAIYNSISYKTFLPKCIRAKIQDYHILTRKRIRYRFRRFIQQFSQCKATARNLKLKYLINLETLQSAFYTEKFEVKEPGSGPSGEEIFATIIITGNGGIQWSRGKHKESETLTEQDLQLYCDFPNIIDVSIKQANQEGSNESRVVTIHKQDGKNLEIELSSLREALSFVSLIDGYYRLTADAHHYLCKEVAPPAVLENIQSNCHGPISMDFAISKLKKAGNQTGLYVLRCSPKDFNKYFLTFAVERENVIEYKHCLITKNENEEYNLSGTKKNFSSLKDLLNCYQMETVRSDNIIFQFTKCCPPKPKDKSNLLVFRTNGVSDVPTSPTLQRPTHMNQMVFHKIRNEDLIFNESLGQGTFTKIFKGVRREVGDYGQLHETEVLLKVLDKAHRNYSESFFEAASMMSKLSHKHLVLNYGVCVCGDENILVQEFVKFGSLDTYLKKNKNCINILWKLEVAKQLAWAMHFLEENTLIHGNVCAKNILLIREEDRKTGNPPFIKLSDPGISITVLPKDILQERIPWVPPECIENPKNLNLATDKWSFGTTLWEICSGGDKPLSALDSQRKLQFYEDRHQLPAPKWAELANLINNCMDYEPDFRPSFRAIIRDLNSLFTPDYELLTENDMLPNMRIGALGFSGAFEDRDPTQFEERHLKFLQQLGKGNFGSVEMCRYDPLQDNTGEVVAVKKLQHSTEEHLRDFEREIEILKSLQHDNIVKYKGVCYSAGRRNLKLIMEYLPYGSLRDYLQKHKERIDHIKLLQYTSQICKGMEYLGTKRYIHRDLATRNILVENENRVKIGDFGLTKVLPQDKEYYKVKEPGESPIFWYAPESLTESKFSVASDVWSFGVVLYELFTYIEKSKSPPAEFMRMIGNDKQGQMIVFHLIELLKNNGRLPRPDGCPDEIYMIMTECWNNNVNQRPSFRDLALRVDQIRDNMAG
UniProt P51812, sequence (whole entry, looked up): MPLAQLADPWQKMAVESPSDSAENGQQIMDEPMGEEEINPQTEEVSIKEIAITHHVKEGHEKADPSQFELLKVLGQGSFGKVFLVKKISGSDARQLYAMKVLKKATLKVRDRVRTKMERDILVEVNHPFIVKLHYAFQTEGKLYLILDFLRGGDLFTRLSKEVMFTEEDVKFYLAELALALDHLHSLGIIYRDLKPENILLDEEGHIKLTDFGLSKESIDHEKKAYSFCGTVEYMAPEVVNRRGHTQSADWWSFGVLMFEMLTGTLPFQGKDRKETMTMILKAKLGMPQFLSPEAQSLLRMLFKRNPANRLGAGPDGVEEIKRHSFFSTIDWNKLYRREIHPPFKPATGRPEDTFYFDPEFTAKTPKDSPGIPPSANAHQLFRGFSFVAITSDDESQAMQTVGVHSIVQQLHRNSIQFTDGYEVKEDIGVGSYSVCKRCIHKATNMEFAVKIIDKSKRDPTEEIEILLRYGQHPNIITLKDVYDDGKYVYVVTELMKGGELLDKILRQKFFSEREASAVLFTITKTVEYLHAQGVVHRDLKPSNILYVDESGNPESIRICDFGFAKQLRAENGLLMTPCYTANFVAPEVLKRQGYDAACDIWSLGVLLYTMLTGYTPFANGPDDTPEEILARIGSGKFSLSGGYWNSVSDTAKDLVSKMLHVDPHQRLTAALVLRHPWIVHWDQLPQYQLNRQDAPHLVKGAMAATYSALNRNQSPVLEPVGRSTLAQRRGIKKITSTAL
UniProt Q9P286, sequence (whole entry, looked up): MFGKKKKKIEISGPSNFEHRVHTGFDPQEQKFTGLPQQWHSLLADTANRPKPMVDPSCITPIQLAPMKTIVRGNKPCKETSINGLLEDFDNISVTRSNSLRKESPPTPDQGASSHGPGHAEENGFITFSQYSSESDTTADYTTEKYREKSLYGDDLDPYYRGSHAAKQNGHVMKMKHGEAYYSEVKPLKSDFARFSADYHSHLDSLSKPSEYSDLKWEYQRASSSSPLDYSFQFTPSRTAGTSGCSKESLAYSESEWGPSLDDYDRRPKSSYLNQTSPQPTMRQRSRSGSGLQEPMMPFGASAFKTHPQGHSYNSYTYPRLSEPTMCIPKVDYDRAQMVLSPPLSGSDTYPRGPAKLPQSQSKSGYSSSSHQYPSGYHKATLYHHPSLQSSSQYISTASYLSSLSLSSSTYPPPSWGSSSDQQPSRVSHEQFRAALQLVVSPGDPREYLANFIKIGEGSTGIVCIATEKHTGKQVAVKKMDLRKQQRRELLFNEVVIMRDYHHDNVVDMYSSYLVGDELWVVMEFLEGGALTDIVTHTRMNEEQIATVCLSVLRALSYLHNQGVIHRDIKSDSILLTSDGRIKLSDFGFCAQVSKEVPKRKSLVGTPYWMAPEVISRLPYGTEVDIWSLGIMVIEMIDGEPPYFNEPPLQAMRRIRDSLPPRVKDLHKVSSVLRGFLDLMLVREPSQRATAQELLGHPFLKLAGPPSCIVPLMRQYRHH
UniProt Q9HBY8, sequence (whole entry, looked up): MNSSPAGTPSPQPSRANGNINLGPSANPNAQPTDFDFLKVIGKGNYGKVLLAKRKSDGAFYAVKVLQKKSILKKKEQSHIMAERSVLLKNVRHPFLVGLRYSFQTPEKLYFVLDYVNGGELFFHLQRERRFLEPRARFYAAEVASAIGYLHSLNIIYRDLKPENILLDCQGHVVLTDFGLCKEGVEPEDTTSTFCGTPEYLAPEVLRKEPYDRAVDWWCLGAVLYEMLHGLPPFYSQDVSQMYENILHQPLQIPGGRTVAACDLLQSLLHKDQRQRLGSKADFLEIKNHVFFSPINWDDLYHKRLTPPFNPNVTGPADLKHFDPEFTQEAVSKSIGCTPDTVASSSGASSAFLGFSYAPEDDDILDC
UniProt P42680, sequence (whole entry, looked up): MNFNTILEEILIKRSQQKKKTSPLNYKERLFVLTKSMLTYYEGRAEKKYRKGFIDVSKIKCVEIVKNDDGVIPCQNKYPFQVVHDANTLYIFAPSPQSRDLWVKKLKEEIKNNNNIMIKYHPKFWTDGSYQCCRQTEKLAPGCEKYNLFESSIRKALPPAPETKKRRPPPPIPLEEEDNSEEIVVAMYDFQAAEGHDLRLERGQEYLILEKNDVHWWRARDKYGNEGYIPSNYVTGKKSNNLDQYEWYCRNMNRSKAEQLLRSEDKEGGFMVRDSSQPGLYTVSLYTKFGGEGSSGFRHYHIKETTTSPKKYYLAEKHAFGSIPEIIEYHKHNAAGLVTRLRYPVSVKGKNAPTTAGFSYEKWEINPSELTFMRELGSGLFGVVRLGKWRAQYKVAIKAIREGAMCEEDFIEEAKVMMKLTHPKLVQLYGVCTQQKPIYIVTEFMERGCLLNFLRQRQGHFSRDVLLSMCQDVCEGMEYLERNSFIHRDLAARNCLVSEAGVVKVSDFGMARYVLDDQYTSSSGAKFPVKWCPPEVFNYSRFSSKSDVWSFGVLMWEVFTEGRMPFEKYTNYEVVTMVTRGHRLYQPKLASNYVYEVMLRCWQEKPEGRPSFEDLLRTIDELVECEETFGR

Series 1
Target: TAR DNA-binding protein 43, full length, His tag (TARDBP, Homo sapiens, UniProt Q13148, residues 1-414)
Technique: RNA Bind-n-Seq
Form: RNA
Sample: in vitro
Concentration: 20 nM
Setting: 6-mer, flanks averaged, single round
Added: 150 mM KCl
Relative to: input library
Direction: higher = stronger binding
| Sequence | 6-mer enrichment (R) |
| --- | --- |
| AAAUAU | 0.667 |
| GGCUGG | 3.52 |
| CCGUUA | 0.577 |
| CCAGAG | 1.03 |
| CAUUUG | 0.651 |
| CCUCGC | 0.617 |
| UCAGCU | 0.6 |
| CUGACC | 0.64 |

Series 2
Cell line: normal-adjacent organoid sample E
Technique: CellTiter-Glo
Concentration: 0.1 µM
Setting: replicate mean
Relative to: DMSO
| SMILES | viability [%] |
| --- | --- |
| O=C(N[C@H]1CCCCC/C=C\C2C[C@@]2(C(=O)O)NC(=O)[C@@H]2C[C@@H](Oc3ccncc3)CN2C1=O)OC1CCCC1 (stereo partly shown) | 114 |
| N#Cc1ccc(Nc2ccc3[nH]c(=O)[nH]c3c2)c(Cl)c1 | 114 |
| O=C(NCc1ncc(C(F)(F)F)cc1Cl)c1ccc2c(c1)C1(CCS(=O)(=O)CC1)[C@H](C1CC1)N2S(=O)(=O)c1ccc(F)cc1 | 91.4 |
| CCS(=O)(=O)c1cc2cc(C[C@@](O)(CC(C)(C)c3ccc(F)cc3C(N)=O)C(F)(F)F)[nH]c2cn1 | 111 |
| O=S(=O)(NC1CCC(c2cc(F)ccc2F)(S(=O)(=O)c2ccc(Cl)cc2)CC1)C(F)(F)F (stereo not shown) | 87.5 |
| CNCc1ccccc1-c1csc([C@H](C)Nc2nc(C)nc3cc(OC)c(OC)cc23)c1 | 111 |
| CS(=O)(=O)N1CCCC(NC(=O)[C@H](CCC2CCCCC2)NC(=O)c2ccc(CNC(=O)c3cnc4ccccn34)cc2)C1 (stereo partly shown) | 136 |

Series 3
SMILES: O=C(Nc1ccc(Cl)cc1)c1ccccc1NCc1ccncc1
Read-out: enzyme activity
Mode: inhibitor
Concentration: 0.5 µM
Relative to: control
| target | remaining activity [%] |
| --- | --- |
| BRSK2 (Homo sapiens, UniProt Q8IWQ3) | 102 |
| SIK2 (Homo sapiens, UniProt Q9H0K1) | 94.8 |
| CSNK1D (Homo sapiens, UniProt P48730) | 98.1 |
| PAK1 (Homo sapiens, UniProt Q13153) | 94.9 |
| SGK2 (Homo sapiens, UniProt Q9HBY8) | 103 |
| TEC (Homo sapiens, UniProt P42680) | 134 |
| FES (Homo sapiens, UniProt P07332) | 96.6 |
| CSNK1E (Homo sapiens, UniProt P49674) | 92.5 |
| EPHB3 (Homo sapiens, UniProt P54753) | 96.9 |
| PAK5 (Homo sapiens, UniProt Q9P286) | 79.4 |
| SRPK1 (Homo sapiens, UniProt Q96SB4) | 109 |
| CAMK1 (Homo sapiens, UniProt Q14012) | 103 |
| CAMKK1 (Homo sapiens, UniProt Q8N5S9) | 98.5 |
| MARK1 (Homo sapiens, UniProt Q9P0L2) | 94.7 |
| EPHA2 (Homo sapiens, UniProt P29317) | 101 |
| PAK6 (Homo sapiens, UniProt Q9NQU5) | 101 |
| CLK1 (Homo sapiens, UniProt P49759) | 102 |
| JAK1 (Homo sapiens, UniProt P23458) | 91.8 |
| CLK2 (Homo sapiens, UniProt P49760) | 91.8 |
| RPS6KA3 (Homo sapiens, UniProt P51812) | 91.4 |
| EPHA6 (Homo sapiens, UniProt Q9UF33) | 89.8 |
| JAK2 (Homo sapiens, UniProt O60674) | 96.5 |
| RPS6KB2 (Homo sapiens, UniProt Q9UBS0) | 105 |
| PRKCQ (Homo sapiens, UniProt Q04759) | 110 |
| MAP3K20 (Homo sapiens, UniProt Q9NYL2) | 86 |

Series 4
Species: human
Sample: microsomes or S9
Concentration: 2 µM
Time: 0.5 h
| Structure (SMILES) | remaining compound |
| --- | --- |
| COC(=O)c1cc(F)c(NCCCN(CCCCN(CCCn2c(=O)[nH]c3cc(F)c(F)cc3c2=O)C(=O)OC(C)(C)C)C(=O)OC(C)(C)C)cc1NC(=O)NCCCN(CCCCN(CCCn1c(=O)[nH]c2cc(F)c(F)cc2c1=O)C(=O)OC(C)(C)C)C(=O)OC(C)(C)C | > 99.9% |
| CNC1=C(c2cc(C)cc(C)n2)C(=O)C(c2ccccc2Cl)O1 (stereo not shown) | 58.8% |
| CCC(C)OC(=O)c1c(NC(=O)C2CCN(S(C)(=O)=O)CC2)sc2c1CCCC2 (stereo not shown) | 33.2% |
| O=C(Cn1nc2c(cc1=O)CCCCC2)Nc1n[nH]c(C2CCCO2)n1 (stereo not shown) | 68.7% |
| CC(=O)NCCc1ccc(S(=O)(=O)N(C)C)cc1 | > 99% |

Series 5
Cell line: HaCaT
Concentration: 100 µM
Time: 18 h
| Structure (SMILES) | viability |
| --- | --- |
| CNCC[C@@H](Oc1ccccc1C)c1ccccc1 | 77% |
| O=C(Nc1ccc(Cl)cc1)c1cc(Br)ccc1O | 33.5% |
| Cc1cn([C@H]2C[C@H](N=[N+]=[N-])[C@@H](CO)O2)c(=O)[nH]c1=O | 96% |
| C[n+]1cc2c3c(ccc2c2ccc4cc5c(cc4c21)OCO5)OCO3 | 108% |
| Cc1cccc(C)c1OCC(=O)N[C@@H](Cc1ccccc1)[C@@H](O)C[C@H](Cc1ccccc1)NC(=O)[C@H](C(C)C)N1CCCNC1=O | 25.9% |

Other studies, line by line
| SMILES | target or system | assay | test system | setting | scale | endpoint | value |
| --- | --- | --- | --- | --- | --- | --- | --- |
| CCOC(=O)[C@@H]1CSCC(=O)N[C@H](CC)C(=O)N(C)[C@@H](C)C(=O)N[C@H](CC(C)C)C(=O)N2CCC[C@@H]2C(=O)N(CC(C)C)CC(=O)N[C@@H](CC(C)C)C(=O)N(C)[C@@H](C)C(=O)N[C@@H](CC(C)C)C(=O)N1C | – | – | hydrocarbon/water | – | – | logD | 0.789 |
| O=C(COc1ccccc1P(=O)(O)O)NCC(F)(F)c1cccc(F)c1 | human islets | qPCR, refers to: ALDH1A3 | – | concentration not given, unit not given, added: glucolipotoxic conditions | relative to: low glucose control | mRNA level | 7.72 and 3.77 and 2.87 and 5.2 |

Excerpt of the above (series 2):
| SMILES | viability [%] |
| --- | --- |
| CCS(=O)(=O)c1cc2cc(C[C@@](O)(CC(C)(C)c3ccc(F)cc3C(N)=O)C(F)(F)F)[nH]c2cn1 | 111 |
| O=S(=O)(NC1CCC(c2cc(F)ccc2F)(S(=O)(=O)c2ccc(Cl)cc2)CC1)C(F)(F)F (stereo not shown) | 87.5 |
| CNCc1ccccc1-c1csc([C@H](C)Nc2nc(C)nc3cc(OC)c(OC)cc23)c1 | 111 |
